Experimental data pooled from the literature.
Protocols differ between the studies behind these lines. ± marks the error that the study gave.

The tissue uptake of `[11CH3]N1CCC(NC(=O)c2cc(-c3c(O)cc(O)cc3Oc3ccc([N+](=O)[O-])cc3)on2)CC1` is reported as 0 %ID (Wistar rat, female, healthy, urine; intravenous, 2 min).
For `COc1cccc(OC)c1-c1cc(C(=O)NC2(C(=O)O)C3CC4CC(C3)CC2C4)nn1-c1ccc(C(=O)N(C)CCCN(C)CCCN(C)C(=O)[C@H](CCCCNC(=O)[C@H](CC(C)C)NC(=O)C2OC2C(=O)O)NC(=O)CN2CCN(CC(=O)[O-])CCN(CC(=O)[O-])CCN(CC(=O)[O-])CC2)cc1C(C)C.[177Lu+3]` (mixture of isomers), the tissue uptake was 9.5 %ID/g (mouse, HT-29 xenograft, HT-29 tumour; 24 h post injection).
`COC1CN([C@H]2CC[C@H]([C@@]3(C)Oc4c(Cl)cc(C(=O)NCc5c(SC)cc(C)[nH]c5=O)c(C)c4O3)CC2)C1` — result for “log2 fold change”: 0.0447 (RNA-seq, measured: RIDA mouse homolog; mouse, HT-1376 xenograft, whole blood; dose not given; baseline: vehicle).
`CCCC[C@H](NC(=O)CNC(=O)CNC(=O)[C@H](CCCCNC(=O)[C@H](CC(=O)O)NC(=O)C(C)c1ccc(CC(C)C)cc1)NC(=O)CN1CCN(CC(=O)O)CCN(CC(=O)O)CCN(CC(=O)O)CC1)C(=O)N[C@H]1CC(=O)NCCCC[C@@H](C(N)=O)NC(=O)[C@H](Cc2c[nH]c3ccccc23)NC(=O)[C@H](CCCNC(=N)N)NC(=O)[C@@H](Cc2ccccc2)NC(=O)[C@H](Cc2c[nH]cn2)NC1=O` (stereo partly drawn) [lutetium-177 labelled] has a tissue uptake of 0.77 ± 0.15 %ID/g (C57 mouse, heart; intravenous, 2 h, with: 10 µg NDP-MSH co-injection).
With `CC(C)Cc1ccc(C(C)C(=O)N[C@@H](CCCCNC(=O)CCOCCOCCOCCOCCOCCOCCNC(=O)CN2CCN(CC(=O)[O-])CCN(CC(=O)[O-])CCN(CC(=O)[O-])CC2)C(=O)Nc2cccc3c(C(=O)NCC(=O)N4CC(F)(F)C[C@H]4C#N)ccnc23)cc1.[177Lu+3]` (stereo partly drawn) the tissue uptake was 0.67 ± 0.24 %ID/g (mouse, U-87 MG tumour xenograft, lung; 24 h).
`[123I]c1ccc2nc(-c3ccc(-n4ccnn4)nc3)cn2c1` gave a tissue uptake of 10.1 ± 0.134 %ID/g (male Wistar rat, large intestine; intravenous, 4 MBq, 3 h).
With `CNS(=O)(=O)Nc1nccc(Cc2c(C)c3ccc(Oc4ncccc4F)cc3oc2=O)c1F` the IC50 was greater than 1 µM (YH-13; cell viability, CellTiter-Glo; 7 days).
With `N#C[C@@H]1CC(F)(F)CN1C(=O)CNC(=O)c1ccnc2c(NC(=O)[C@@H](N)CCCCNC(=O)CCOCCOCCOCCOCCOCCOCCNC(=O)CN3CCN(CC(=O)[O-])CCN(CC(=O)[O-])CCN(CC(=O)[O-])CC3)cccc12.[177Lu+3]` the tissue uptake was 0.17 ± 0.07 %ID/g (mouse, U-87 MG tumour xenograft, salivary gland; 24 h).
The tissue uptake of `COc1cccc(OC)c1-c1cc(C(=O)NC2(C(=O)O)C3CC4CC(C3)CC2C4)nn1-c1ccc(C(=O)N(C)CCOCCOCCN(C)C(=O)[C@H](CCCCNC(=O)[C@H](CC(C)C)NC(=O)C2OC2C(=O)O)NC(=O)CN2CCN(CC(=O)[O-])CCN(CC(=O)[O-])CCN(CC(=O)[O-])CC2)cc1C(C)C.[177Lu+3]` (mixture of isomers) is reported as 0.179 %ID/g (mouse HT-29 xenograft, small intestine; 24 h post injection, biodistribution).
`C=CC(=O)Nc1cccc(Cn2ncc3cnc(Nc4cnn(CCOC)c4)nc32)c1` — result for “percent of control”: 100% (WEE2 human; binding, KINOMEscan; 100 nM; lower = stronger binding).
With `O=C(O)CCCOc1ccc([18F])cc1-c1cc(-c2ccccc2C(F)(F)F)n(-c2ccccc2)n1` the tissue uptake was 2.22 ± 0.32 %ID/g (mouse, muscle; intravenous, dose not given, 30 min).
`Cc1ncsc1-c1ccc(C(C)NC(=O)C2CC(O)CN2C(=O)C(NC(=O)CCCCCCCCCCN2CCCC(Nc3ncc(Cl)c(Nc4ccccc4S(=O)(=O)C(C)C)n3)C2)C(C)(C)C)cc1` (stereo not drawn) — result for “log2 fold change”: -1.97 (22Rv1; RNA-seq, measured: ZNF610 mRNA; concentration not given; baseline: DMSO).
`O=C1NC2(CC2)COc2ncc(F)cc2[C@H]2COCCN2c2ccn3ncc1c3n2` has a revertant colonies of 24 ± 3 revertants/plate (Salmonella typhimurium; Ames test; TA98; 1500 µg/plate, 48 h, with: rat liver S9).
`N#C[C@@H]1CC(F)(F)CN1C(=O)CNC(=O)c1ccnc2c(NC(=O)[C@H](CCCCNC(=O)CCOCCOCCOCCOCCOCCOCCNC(=O)CN3CCN(CC(=O)[O-])CCN(CC(=O)[O-])CCN(CC(=O)[O-])CC3)NC(=O)CCCc3ccc(I)cc3)cccc12.[177Lu+3]` has a tissue uptake of 2.97 ± 0.8 %ID/g (mouse, U-87 MG tumour xenograft, lung; 24 h).
The tissue uptake of `COc1cccc(OC)c1-c1cc(C(=O)NC2(C(=O)O)C3CC4CC(C3)CC2C4)nn1-c1ccc(C(=O)N(C)CCCN(C)C(=O)[C@H](CCCCNC(=O)[C@H](CC(C)C)NC(=O)C2OC2C(=O)O)NC(=O)CN2CCN(CC(=O)[O-])CCN(CC(=O)[O-])CCN(CC(=O)[O-])CC2)cc1C(C)C.[177Lu+3]` (mixture of isomers) is reported as 2.7 %ID/g (mouse, HT-29 xenograft, HT-29 tumour; 24 h post injection).
